Assay results of several laboratories.
Lines come from different studies, so protocols differ. Numbers after ± are the reported error.
Sequence of UniProt P51813 (whole entry, looked up): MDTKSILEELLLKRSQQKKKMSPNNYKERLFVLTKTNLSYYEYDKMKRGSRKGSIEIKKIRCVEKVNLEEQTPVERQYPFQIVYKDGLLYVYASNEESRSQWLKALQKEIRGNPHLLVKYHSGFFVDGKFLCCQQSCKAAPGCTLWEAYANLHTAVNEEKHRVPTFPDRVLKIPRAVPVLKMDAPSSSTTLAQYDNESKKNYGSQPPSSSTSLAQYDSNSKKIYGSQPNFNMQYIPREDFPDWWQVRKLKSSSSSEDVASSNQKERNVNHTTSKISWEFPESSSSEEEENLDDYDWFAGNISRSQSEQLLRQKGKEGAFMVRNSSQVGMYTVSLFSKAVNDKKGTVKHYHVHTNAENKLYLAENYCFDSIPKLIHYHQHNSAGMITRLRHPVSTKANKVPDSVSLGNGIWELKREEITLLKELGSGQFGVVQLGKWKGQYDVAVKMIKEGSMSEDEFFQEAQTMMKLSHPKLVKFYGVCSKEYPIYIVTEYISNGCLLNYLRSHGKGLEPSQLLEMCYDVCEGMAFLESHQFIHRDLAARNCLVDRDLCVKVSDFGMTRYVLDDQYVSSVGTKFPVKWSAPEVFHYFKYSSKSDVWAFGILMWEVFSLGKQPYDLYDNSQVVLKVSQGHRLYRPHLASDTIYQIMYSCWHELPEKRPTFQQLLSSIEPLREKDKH

Compound	target or system	test	test system	setting	how to read	endpoint	value
COc1cc(C(=O)N/N=C/c2cccc3ccccc23)cc(OC)c1OC	HPBALL	cell growth or viability, MTT		48 h		IC50	85.8 nM
C=CC(=O)N1CCCC(n2c(=O)c3ncccc3n(Cc3ccc(Oc4ccccc4)cc3)c2=O)C1 (stereo not drawn)	MINO	cell growth or viability, MTT		72 h		IC50	100 nM
CC(C)c1ccc(N(C)c2ccc3c(c2)OCC[C@H]3CNc2cnccc2C(=O)O)cc1	Calu-1	cell growth or viability, ATP luminescence		7 days		IC50	≥ 10000 nM
COc1ccc(COC[C@](O)(CNCc2ccc(F)cc2)[C@@H]2CC[C@@H](C)C[C@H]2OCc2ccc(OC)cc2)cc1	A2780	cell growth or viability, MTT		72 h		IC50	1920 nM
CN1CCC(N[C@H]2CCc3[nH]c4c(C(N)=O)ccc(-c5ccccc5Cl)c4c3C2)CC1	K562 parental	cell proliferation				IC50	735 nM
CCN(C(=O)c1cc(F)ccc1Oc1nncnc1N1CCC2(C1)CN(C(CCCN(C)CCOC)C(C)C)C2)C(C)C (stereo not drawn)	OCI-AML-3 (NPM1c)	inhibitor, QuantiGene multiplex, refers to: FLT3 mRNA				IC50	> 2320 nM
C=CC(=O)Nc1cccc(Cn2ncc3cnc(Nc4cnn(CCOC)c4)nc32)c1	LKB1 human	binding, KINOMEscan		100 nM	lower = stronger binding	percent of control	61%
C=CC(=O)N1[C@@H](c2ccc3c(c2)OCO3)c2[nH]c3ccccc3c2C[C@H]1C(=O)N1CCN(C)CC1	human cyclin E1 N112C-3xFLAG:CDK2	co-IP with TMT proteomics, refers to: TUBB		concentration not given, P07437	baseline: wild type DMSO	relative co-enrichment	124%
CNS(=O)(=O)Nc1nccc(Cc2c(C)c3ccc(Oc4ncccc4F)cc3oc2=O)c1F	639-V	cell viability		7 days		IC50	> 1000 nM
COC1CN([C@H]2CC[C@H]([C@@]3(C)Oc4c(Cl)cc(C(=O)NCc5c(SC)cc(C)[nH]c5=O)c(C)c4O3)CC2)C1		RNA-seq, refers to: ATP7B mouse homolog	mouse, HT-1376 xenograft, whole blood	dose not given	baseline: vehicle	log2 fold change	0.227
COc1cc(-c2cc(C(C)=O)n3ccccc23)c(OC)cc1Cn1ccnc1	MOLM16	cell growth or viability, ATP luminescence				IC50	28 nM
O=CCNCCOn1c(=O)n(OCCNCCO)c(=O)n(OCCNCCOn2c(=O)n(OCCNCCO)c(=O)n(OCCNCCO)c2=O)c1=O	A549	cell growth or viability, MTT		48 h		IC50	9.79 µg/mL
CC(=O)[O][Pt]([NH2])([NH2])([Cl])([Cl])[O]C(=O)C(C)c1ccc(CC(C)C)cc1 (stereo not drawn)	2008 ovarian adenocarcinoma	cytotoxicity, MTT		72 h		IC50	980 ± 100 nM
Cc1ccc(-c2ccc(C)cn2)nc1	BEL-7404	cell growth or viability, MTT		48 h		IC50	> 50000 nM
[BH3-][P@+]1(c2ccccc2)CC[C@@H](O)CC1	HaCaT	cell growth or viability, MTT		72 h		IC50	> 100000 nM
Cn1ncc(-c2ccc3c(=O)[nH]nc(CN)c3c2)c1-c1c(F)c(Cl)cc(OC2CC2)c1C#N	SW1990	cell viability, inhibitor, CellTiter-Glo		120 h, baseline-subtracted		IC50	300 nM
CCOc1cncc(-c2ccc(NC(=O)C3(c4ccnc(NS(=O)(=O)C5CC5)n4)CCOCC3)nc2)n1	MINO	cell growth or viability, ATP luminescence		72 h		IC50	1680 nM
c1ccc(-c2ccnc3c2ccc2c(-c4ccccc4)ccnc23)cc1	BEL-7404	cell growth or viability, MTT		48 h		IC50	> 50000 nM
NC(=O)c1ccc(-c2ccccc2Cl)c2c3c([nH]c12)CCC(N)C3 (stereo not drawn)	MINO	cell growth or viability		96 h		IC50	24 nM
C=CC(=O)Nc1cc(Nc2nccc(-c3cn(C)c4ccccc34)n2)c(OC)cc1N(C)CCN(C)C	BaF3	cell growth or viability		72 h		IC50	2840 nM
C[n+]1cccc2cc(/C=N/NC(=O)c3cncc(C(=O)N/N=C/c4ccc5c(ccc[n+]5C)c4)n3)ccc21	22CTA telomeric G4-DNA antiparallel	FRET melting		1 µM, K10 buffer, DNA 0.2 µM, with: ds26 10 µM		ΔTm	12.6 ± 0.3 °C
Nc1ncc(-c2cc(-c3cnn(CC(F)(F)F)c3)ncc2F)nc1C(=O)NC1CNCC(F)C1 (stereo not drawn)	PRKCD	KINOMEscan		1 µM	baseline: DMSO control	remaining binding	75%
CC[n+]1cccc2cc(/C=N/NC(=O)c3ccc4ccc(C(=O)N/N=C/c5ccc6c(ccc[n+]6CC)c5)nc4n3)ccc21	22CTA telomeric G4-DNA antiparallel	FRET melting		1 µM, K10 buffer, DNA 0.2 µM, with: ds26 10 µM		ΔTm	11.9 ± 0.5 °C
Cc1nn(-c2cccc(N)c2)c(=O)c2cnc(Nc3ccc(N4CCNCC4)cc3)nc12	Cytoplasmic tyrosine-protein kinase BMX (BMX, Homo sapiens, UniProt P51813)	kinase activity, inhibitor, SelectScreen kinase profiling				IC50	> 10000 nM

For quick reference, copied from above:
Compound	target or system	test	test system	setting	how to read	endpoint	value
Cc1ccc(-c2ccc(C)cn2)nc1	BEL-7404	cell growth or viability, MTT		48 h		IC50	> 50000 nM
[BH3-][P@+]1(c2ccccc2)CC[C@@H](O)CC1	HaCaT	cell growth or viability, MTT		72 h		IC50	> 100000 nM
Cn1ncc(-c2ccc3c(=O)[nH]nc(CN)c3c2)c1-c1c(F)c(Cl)cc(OC2CC2)c1C#N	SW1990	cell viability, inhibitor, CellTiter-Glo		120 h, baseline-subtracted		IC50	300 nM
CCOc1cncc(-c2ccc(NC(=O)C3(c4ccnc(NS(=O)(=O)C5CC5)n4)CCOCC3)nc2)n1	MINO	cell growth or viability, ATP luminescence		72 h		IC50	1680 nM
